Measurements collected from several papers.
Route: oral

SMILES | assay | system | conditions | measurement | result
CNC(=O)c1ccc(-c2cnc3ncc(Cc4ccc5ncccc5c4)n3n2)cc1F | refers to: Dyspnea | other cancer patients | 600 mg twice daily, expansion cohort, grade 3-4 | patients with adverse event | 0%
CCO[C@H]1CCN(Cc2c(OC)cc(C)c3[nH]ccc23)[C@H](c2ccc(C(=O)O)cc2)C1 | refers to: Hematuria | PNH patients, active haemolysis | 100 mg twice daily, extension phase | patients with adverse event | 20%
COc1cc(Nc2ncc3c(n2)-c2ccc(Cl)cc2C(c2c(F)cccc2OC)=NC3)ccc1C(=O)O | refers to: Dyspnea, grade 3 | cancer patients, phase 1/2 | dose not given, added: pembrolizumab | patients with adverse event | 4%
C[C@@H](c1ccc2nccn2c1)n1nnc2ncc(-c3cnn(C)c3)nc21 | refers to: Dyspnea grade ≥3 | EGFR-mutant MET-altered NSCLC | study | patients with treatment-related AEs | 0%
O=C(Nc1nc2cccc(-c3ccc(CN4CCS(=O)(=O)CC4)cc3)n2n1)C1CC1 |  | rheumatoid arthritis patients | 300 mg once daily, 4 weeks, TEAE regardless of relatedness | patients with upper abdominal pain | 0%
CNC(=O)c1cc(Oc2ccc(NC(=O)Nc3cc(C(C)(C)C)nn3-c3ccc4ncccc4c3)c(F)c2)ccn1 |  | patients | dose not given, cycles 1 and 2, Low Cmax subgroup | patients with grade 1 cardiac disorders | 6%
Cc1cc(-c2nnc(N)nc2-c2ccc(F)cc2)cc(Cl)n1 | refers to: Myositis | IO-naive mCRPC patients, male | dose not given, treatment-related, grade 2 | patients with immune-mediated AE | 0%
C=CC(=O)Nc1cc(Nc2nccc(-c3cn(C)c4ccccc34)n2)c(OC)cc1N(C)CCN(C)C | refers to: treatment-related grade ≥3 Thrombocytopenia | EGFR-mutant MET-altered NSCLC | dose not given, all | patients with adverse events | 1%
C[C@@H](Nc1cc(F)cc(F)c1)c1cc(C(=O)N(C)C)cc2c(=O)cc(N3CCOCC3)oc12 | CTCAE v4, refers to: abdominal pain | patients with advanced solid tumours | dose not given, phase I dose expansion | patients discontinuing for AE | 0%
FC(F)(F)c1ccc(CNc2ccc(Cc3c[nH]c4ncc(Cl)cc34)cn2)cn1 | refers to: skin hypopigmentation | advanced solid tumour patients | 1000 mg/day, all grades, all cohorts | patients with treatment-related adverse event | 9%
CCOc1c([C@H](C)n2nc(C)c3c(N)ncnc32)cc(Cl)c(F)c1[C@@H]1CNC(=O)C1 | refers to: QRS ≤100 ms | previously treated B-cell malignancy | 10 mg once daily, baseline below thresholds | patients | 100%
Cc1cc(NC2CCN(C(=O)OC3CCN(C(=O)/C=C/CN(C)C)C3)CC2)n2ncc(C(C)C)c2n1 (stereo not shown) | CTCAE v4.0, refers to: Flatulence | patients with advanced solid tumours | dose not given, all schedules, grade 3 or higher | patients with TEAE | 0%
C=CC(=O)NC1CCN(c2ncc3ncnc(Nc4ccc(Oc5ccc6c(c5)ncn6C)c(C)c4)c3n2)CC1 |  | male patients | dose not given, treatment-related adverse events | patients with upper abdominal pain | 0%

Excerpt of the above:
SMILES | assay | system | conditions | measurement | result
C=CC(=O)Nc1cc(Nc2nccc(-c3cn(C)c4ccccc34)n2)c(OC)cc1N(C)CCN(C)C | refers to: treatment-related grade ≥3 Thrombocytopenia | EGFR-mutant MET-altered NSCLC | dose not given, all | patients with adverse events | 1%
